Published values collected from several papers.
Several values in a cell are separate wells, animals, samples, runs or records. ± marks the error that the study gave.

CC[C@H](C)[C@H](NC(=O)[C@H](CCCCN)NC(=O)CNC(=O)[C@H](CC(C)C)NC(=O)[C@H](Cc1ccccc1)NC(=O)[C@H](CCCCN)NC(=O)[C@H](CO)NC(=O)[C@H](Cc1ccccc1)NC(=O)[C@H](Cc1c[nH]c2ccccc12)NC(=O)[C@H](CCC(N)=O)NC(=O)[C@@H](NC(=O)[C@H](Cc1ccccc1)NC(=O)CCCCCNC(=O)CN1CCN(CC(=O)O)CCN(CC(=O)O)CCN(CC(=O)O)CC1)C(C)C)C(=O)N[C@@H](CCC(=O)O)C(=O)N1CCC[C@H]1C(=O)N[C@@H](CC(=O)O)C(=O)N[C@H](C(=O)N[C@@H](CO)C(=O)N[C@@H](CCC(N)=O)C(=O)N[C@H](C(=O)N[C@@H](CCC(N)=O)C(=O)N[C@@H](CC(=O)O)C(=O)N1CCC[C@H]1C(=O)N[C@@H](CC(N)=O)C(=O)N[C@@H](CC(=O)O)C(=O)N[C@@H](CCC(N)=O)C(=O)N[C@@H](Cc1ccc(O)cc1)C(=O)N[C@@H](CCC(=O)O)C(=O)N1CCC[C@H]1C(=O)N[C@@H](Cc1ccccc1)C(=O)O)C(C)C)C(C)C [copper-64 labelled] — tissue uptake (BALB/c mice, male, CT26 tumour-bearing, bone; 2 h, vehicle-treated): 0.53 ± 0.1 %ID/g
N=C(N)NCCC[C@@H](NC(=O)[C@H](N)Cc1c[nH]c2ccccc12)C(=O)N[C@H](CCCCN)C(=O)N[C@H](Cc1c[nH]c2ccccc12)C(=O)N[C@H](CCCNC(=N)N)C(=O)N[C@H](CCCCN)C(=O)N[C@H](Cc1c[nH]c2ccccc12)C(=O)N[C@H](CCCNC(=N)N)C(=O)N[C@H](CCCCN)C(=O)N[C@H](Cc1c[nH]c2ccccc12)C(=O)N[C@H](CCCNC(=N)N)C(=O)N[C@H](CCCCN)C(N)=O — organ index (mouse, liver; intravenous, 20 mg/kg single dose, 7 days): 4.92
C#Cc1c(F)ccc2cc(O)cc(-c3ncc4c(N5CC6CCC(C5)N6C(=O)OC(OC(=O)CCC)C5CCC5)nc(OC[C@@]56CCCN5C[C@H](F)C6)nc4c3F)c12 (some centres unmarked) — compound remaining (chemical stability; simulated intestinal fluid; 1 µM, 30 min): 102%
Cc1ccccc1-c1ccc(-c2nc(-c3ccc(CN(C)CCCC(=O)O)c([18F])c3)no2)cc1C(F)(F)F — tracer uptake (rat, bone; 1 h): 0.07 %ID/g
C=C/C=C/C[C@@H](C)[C@@H](O)[C@H]1C(=O)N[C@@H](CC)C(=O)N(C)CC(=O)N(C)[C@@H](CC(C)C)C(=O)N[C@@H](C(C)C)C(=O)N(C)[C@@H](CC(C)C)C(=O)N[C@@H](C)C(=O)N[C@H](C)C(=O)N(C)[C@@H](CC(C)C)C(=O)N(C)[C@@H](CC(C)C)C(=O)N(C)[C@@H](C(C)C)C(=O)N1C — free Ca2+ (calcium-selective electrode; Wistar Kyoto rat, male, heparinized whole blood; ip, 0.5 mg/kg/day, day 28): 1.2 ± 0.07 mmol/L
O=S(=O)(c1ccc2c(c1)OCO2)n1cc(CCCCN2CCC(=C(c3ccc(F)c(F)c3)c3ccc(F)c(F)c3)CC2)nn1 — tolerated dose range (dose escalation, measured: body weight; mouse): 10 to 50 mg/kg
CCCCCCCCCCCCCCCC(=O)N[C@@H](CCC(=O)NCCOCCOCCC(=O)NCCOCCOCCC(=O)NCCCC[C@H](NC(=O)[C@H](CC(=O)O)NC(=O)[C@H](CC(C)C)NC(=O)[C@H](Cc1ccc(O)cc1)NC(=O)[C@H](CCCCN)NC(=O)[C@H](CO)NC(=O)[C@H](Cc1ccc(O)cc1)NC(=O)[C@H](CC(=O)O)NC(=O)[C@H](CO)NC(=O)[C@@H](NC(=O)[C@H](Cc1ccccc1)NC(=O)[C@@H](NC(=O)CNC(=O)[C@H](CCC(N)=O)NC(=O)[C@@H](CO)NC(=O)[C@@H](N)Cc1c[nH]cn1)[C@@H](C)O)[C@@H](C)O)C(=O)N[C@@H](CCCNC(=N)N)C(=O)N[C@@H](CCCNC(=N)N)C(=O)N[C@@H](C)C(=O)N[C@@H](CCC(N)=O)C(=O)N[C@@H](CC(=O)O)C(=O)N[C@@H](Cc1ccccc1)C(=O)N[C@H](C(=O)N[C@@H](CCC(N)=O)C(=O)N[C@@H](Cc1c[nH]c2ccccc12)C(=O)N[C@@H](CC(C)C)C(=O)N[C@@H](CC(C)C)C(=O)N[C@@H](CC(N)=O)C(=O)N[C@H](C(=O)NCC(=O)NCC(=O)N1CCC[C@H]1C(=O)N[C@@H](CO)C(=O)N[C@@H](CO)C(=O)NCC(=O)N[C@@H](C)C(=O)N1CCC[C@H]1C(=O)N1CCC[C@H]1C(=O)N1CCC[C@H]1C(=O)N[C@@H](CO)C(N)=O)[C@@H](C)O)C(C)C)C(=O)O — total cholesterol (rhesus monkey, female; subcutaneous, 60 µg/kg once daily, 28 days): 2.74 ± 0.54 mmol/L
O=C1NC2(CC2)COc2ncc(F)cc2[C@H]2COCCN2c2ccn3ncc1c3n2 — organ weight (Sprague-Dawley rat, female, brain; oral, 2.5 mg/kg/day, 4 weeks): 1.96 ± 0.084 g
CSCC[C@H](N)C(=O)N[C@@H](C)C(=O)N[C@@H](CCCNC(=N)N)C(=O)N[C@@H](CCCNC(=N)N)C(=O)N[C@@H](CC(=O)O)C(=O)N[C@@H](CCCCN)C(=O)N[C@H](C(=O)N[C@@H](CC(=O)O)C(=O)N[C@@H](Cc1ccccc1)C(=O)N[C@@H](C)C(=O)N[C@@H](CCCNC(=N)N)C(=O)N[C@@H](CCCNC(=N)N)C(=O)N[C@@H](CCCNC(=N)N)C(=O)N[C@@H](CCCNC(=N)N)C(=O)NCCCCCC(=O)NCCCCC(NC(=O)CCCCCNC(=O)[C@H](CCCNC(=N)N)NC(=O)[C@H](CCCNC(=N)N)NC(=O)[C@H](CCCNC(=N)N)NC(=O)[C@H](CCCNC(=N)N)NC(=O)[C@H](C)NC(=O)[C@H](Cc1ccccc1)NC(=O)[C@H](CC(=O)O)NC(=O)[C@@H](NC(=O)[C@H](CCCCN)NC(=O)[C@H](CC(=O)O)NC(=O)[C@H](CCCNC(=N)N)NC(=O)[C@H](CCCNC(=N)N)NC(=O)[C@H](C)NC(=O)[C@@H](N)CCSC)[C@@H](C)O)C(=O)NCCCCC(NC(=O)C(CCCCNC(=O)CCCCCNC(=O)[C@H](CCCNC(=N)N)NC(=O)[C@H](CCCNC(=N)N)NC(=O)[C@H](CCCNC(=N)N)NC(=O)[C@H](CCCNC(=N)N)NC(=O)[C@H](C)NC(=O)[C@H](Cc1ccccc1)NC(=O)[C@H](CC(=O)O)NC(=O)[C@@H](NC(=O)[C@H](CCCCN)NC(=O)[C@H](CC(=O)O)NC(=O)[C@H](CCCNC(=N)N)NC(=O)[C@H](CCCNC(=N)N)NC(=O)[C@H](C)NC(=O)[C@@H](N)CCSC)[C@@H](C)O)NC(=O)CCCCCNC(=O)[C@H](CCCNC(=N)N)NC(=O)[C@H](CCCNC(=N)N)NC(=O)[C@H](CCCNC(=N)N)NC(=O)[C@H](CCCNC(=N)N)NC(=O)[C@H](C)NC(=O)[C@H](Cc1ccccc1)NC(=O)[C@H](CC(=O)O)NC(=O)[C@@H](NC(=O)[C@H](CCCCN)NC(=O)[C@H](CC(=O)O)NC(=O)[C@H](CCCNC(=N)N)NC(=O)[C@H](CCCNC(=N)N)NC(=O)[C@H](C)NC(=O)[C@@H](N)CCSC)[C@@H](C)O)C(N)=O)[C@@H](C)O (some centres unmarked) — tissue distribution (C57BL/6 mouse female, skull; dose not given, 6 h; reference: total): 9.78% and 15.9% and 16%
CC(C)[C@@H]1NC(=O)CNC(=O)[C@H](CC(N)=O)NC(=O)[C@H](CCCNC(=N)N)NC(=O)[C@H](Cc2ccc(O)cc2)NC(=O)[C@H](C(C)C)NC(=O)[C@@H](NC(=O)[C@@H](NC(=O)[C@H](CC(N)=O)NC(=O)[C@H](Cc2c[nH]c3ccccc23)NC(=O)[C@H](C)NC(=O)[C@H](Cc2ccccc2)NC(=O)CNC(=O)[C@H](CCCCN)NC(=O)[C@H](Cc2ccccc2)NC(=O)[C@H](Cc2ccccc2)NC(=O)[C@H](CCCCN)NC(=O)OCC2c3ccccc3-c3ccccc32)C(C)C)CSSC[C@@H](C(=O)N[C@@H](Cc2c[nH]cn2)C(=O)N[C@@H](CCCNC(=N)N)C(=O)N[C@@H](CCCNC(=N)N)C(=O)N[C@@H](C)C(=O)N[C@@H](CC(N)=O)C(N)=O)NC(=O)[C@H](C(C)C)NC(=O)[C@H](CCCNC(=N)N)NC1=O — monocytes (ICR mice, blood; intraperitoneal, 5 mg/kg, day 5): 2.92 ± 0.22%
O=C([O-])CNC(=O)CN1CCN(CC(=O)NCC(=O)[O-])CCN(CC(=O)NCC(=O)[O-])CCN(CC(=O)NCC(=O)[O-])CC1.[177Lu+3] — biodistribution (Sprague-Dawley rat, large intestine; intravenous, dose not given, 2 h): 0.016 ± 0.039 % injected dose/g
O=C(c1cc(Cc2n[nH]c(=O)c3ccccc23)ccc1F)N1CC(CNC2CC2)C1 — haemoglobin (Wistar Han rat, female, blood; oral, 60 mg/kg daily, 4 weeks): 9.9 ± 0.8 g/dL
CC(C)N1CCCCC1C(=O)NC(Cc1ccc(-c2ccccc2)cc1)B(O)O (centres unmarked) — blood concentration (SCID mouse, P. falciparum model, blood; oral, 25 mg/kg, 2 h): 89 ng/mL
CSCC[C@@H]1NC(=O)[C@H](C(C)C)NC(=O)[C@H](CCCNC(=N)N)NC(=O)[C@@H]2CCCN2C(=O)CNC(=O)[C@@H](NC(=O)CNC(=O)[C@H](CO)NC(=O)CNC(=O)[C@H](CO)NC(=S)Nc2ccc(C[C@H]3CN(CC(=O)O)CCN(CC(=O)O)CCN3CC(=O)O)cc2)CSSC[C@@H](C(N)=O)NC(=O)[C@@H]2CCCN2C(=O)CNC(=O)[C@H](CCC(=O)O)NC(=O)[C@H](CC(=O)O)NC(=O)[C@H](CC(=O)O)NC(=O)CNC(=O)[C@H](CC(C)C)NC(=O)[C@H](Cc2c[nH]cn2)NC(=O)[C@H](CC(C)C)NC(=O)CNC(=O)[C@H](Cc2c[nH]cn2)NC1=O [copper-64 labelled] — blood distribution half-life (dynamic PET; CD rat, myocardial infarction, left ventricular blood pool; intravenous, 18.5 MBq): 2.2 ± 0.1 min
N#[11C]c1ccc(-c2csc(NN=C3CCCC3)n2)cc1 — radioactivity uptake (C57BL/6 mice, male, lung; intravenous, 3 MBq, 30 min): 3.58 ± 0.4 %ID/g
CC1COC2=C1C(=O)C(=O)c1c2ccc2c1C(OC(=O)CNC(=O)CN)CCC2(C)C (mixture of isomers) — equilibrium solubility (saline with 20% PEG 400; 24 h, 25 °C): 509 µg/mL
COc1cnc2cccc(N3CCc4c(cc(Cn5ccnc5)cc4-c4cn(C)nc4C(F)(F)F)C3=O)c2c1 — body weight (BALB/c nude mice, MV4-11 xenograft; intraperitoneal, 100 mg/kg, day 21): 23.2 g and 20.7 g and 24.8 g and 25.8 g and 23.7 g and 22.6 g and 22.5 g
